Published values of several laboratories.
Values joined by “and” are separate records of one study, mostly repeats; a detail may differ. ± marks the error that the study gave.

Compound	cell line	test	system	setting	scale	quantity	result
C=C(NC(=O)c1csc(-c2cccnc2)n1)C(=O)NC(=C)C(=O)OC	NCI-H358	cell viability				EC50	5.7 µM
CCCCCCc1cccc([C@H](O)C[C@H](CO)NC(=O)CCCCCCCCCCBr)c1	HeLa	CERT activity, HPLC-MS/MS lipidomics, measured: lactosylceramide 24:1		1 µM, 24 h, not cell-number normalised		lactosylceramide level	6410 pmol/sample and 8450 pmol/sample and 9050 pmol/sample
CO[C@@H]1[C@@H](OC(N)=O)[C@@H](O)[C@H](Oc2ccc3c(O)c(NC(=O)c4ccc(O)c(CC=C(C)C)c4)c(=O)oc3c2C)OC1(C)C	DLD-1 BRCA2-/-			250 µM, replicate A	baseline: untreated	colony survival	0.339%
Cn1ncc2cc(-c3cncc(Cl)c3N3CCC4(CCNC4=O)CC3)ccc21	LS174T	gene expression, microarray, measured: PLAC8 mRNA		concentration not given, 24 h	baseline: untreated cells	log2 fold change	2.47
[BH3-][P+]1(c2ccccc2)CCCCC1	HCT-116	Annexin V-FITC/PI flow cytometry		IC50, 72 h		late apoptotic cells	3.15%
CN1CCCNC(=O)c2cccc(c2)C(=O)NCCCN(C)CCCNc2cccc3c2C(=O)c2cccc(c2C3=O)NCCC1	SAS	RNA-Seq, measured: WASHC4 mRNA		1 µM, 6 h	baseline: untreated cells	log2 fold change	-1.01
CN1CCC(N[C@@H]2CCc3[nH]c4c(C(N)=O)ccc(-c5ccccc5Cl)c4c3C2)CC1	HuCCT-1	cell growth or viability				IC50	0.00204 µM
CNS(=O)(=O)Nc1nccc(Cc2c(C)c3ccc(Oc4ncccc4F)cc3oc2=O)c1F	TK	cell viability, CellTiter-Glo		7 days		IC50	> 1 µM
CCOc1cncc(-c2ccc(NC(=O)C3(c4ccnc(NS(=O)(=O)C5CC5)n4)CCOCC3)nc2)n1	renal cancer	cell viability, CellTiter-Glo	DMSO 0.1%	72 h, line code 2516		IC50	0.421 µM
CC1(C)C[C@@H](Nc2cccc(-c3sc(C(=O)O)c(OCC(=O)O)c3Cl)c2)CCN1S(=O)(=O)Cc1cccc(NC(=O)CN2CCC(c3ccc4c(c3)oc(=O)n4C3CCC(=O)NC3=O)CC2)c1 (stereo partly drawn)	B16-F10	HTRF, measured: phospho-STAT1 Tyr701		1.1 µM, added: IFN-γ	baseline: min-max normalised	pSTAT1 level	78.6% and 81.3% and 82.1% and 78.8% and 80.8%
COC(=O)c1cc(NC2=NC(=O)C(=Cc3ccc(C)cc3)S2)ccc1OC(C)=O	MCF7	GC-MS, measured: Guanosine		1 µM	baseline: DMSO	metabolite level	-0.55 fold change
Cc1ccc(-n2cc(CSc3nc4ccccc4n3Cc3cn(-c4ccc(C)cc4)nn3)nn2)cc1	HEK293	MTT		125 ppm		cytotoxicity	83.6%
O=C(N1CCCC1)n1cc(-c2ccc(-c3ccccc3)cc2)nn1	mouse T cells	N-terminal labelling proteomics, measured: SKP1A N-terminal peptides		0.001 µM, 6 h	baseline: DMSO	SILAC ratio	1.18
CC(C)Cc1ccc(C(C)C(=O)[Se]CC(=O)Nc2cccc(C(F)(F)F)c2)cc1 (stereo not drawn)	NCI60 breast subpanel	cell growth		10 µM, 48 h, one-dose		mean growth percent	-76.3%
CCN(CC)CC(=O)Nc1cccc(-n2cc(-c3ccc4ccc(-c5cn(-c6cccc(NC(=O)CN(CC)CC)c6)nn5)cc4c3)nn2)c1	RCC4	PCR angiogenesis array, measured: EFNB2		5 x IC50, 6 h, normoxia	baseline: untreated	fold regulation	-2.08
O=C(NCc1cc(F)cc(F)c1)[C@@]1(O)CCN(c2ccc3[nH]ccc3c2)C1=O	PDX-derived kidney tumour cells	colony formation, inhibitor, soft agar clonogenic		8-13 days		maximal inhibition	53%
Cc1ccncc1.[Cl-].[Cl-].[Ru+2].c1cc(-c2ccc3cccnc3n2)nc(-c2ccc3cccnc3n2)c1.c1ccc2cc3nc4c5cccnc5c5ncccc5c4nc3cc2c1	B16-F10	resazurin		added: light 523 nm, 20 mW, 100 J/cm2		EC50	1.31 µM
Cc1ncsc1-c1ccc(C(C)NC(=O)C2CC(O)CN2C(=O)C(NC(=O)CCCCCCCCCCN2CCCC(Nc3ncc(Cl)c(Nc4ccccc4S(=O)(=O)C(C)C)n3)C2)C(C)(C)C)cc1 (stereo not drawn)	22Rv1	RNA-seq, measured: SEC22A mRNA		concentration not given	baseline: DMSO	log2 fold change	-1.01
CC(=NN=c1sc(C(=O)c2ccccc2)nn1-c1ccccc1)c1ccc(S(=O)(=O)N2CCC(C)CC2)cc1	HCT-116	flow cytometry		3.66 µM (IC50), 72 h		cells in G0/G1 phase	44.1%
COc1cc(N2CCN(C(=O)C3CCCN3)CC2)ccc1Nc1ncc(Cl)c(Nc2ccccc2P(C)(C)=O)n1 (stereo not drawn)	NCI-H3122	flow cytometry		500 nM, 24 h		cells in G2 phase	5.8%
CC(C)c1ccc(N(C)c2ccc3c(c2)OCC[C@H]3CNc2cnccc2C(=O)O)cc1	HCC1937	cell viability, CellTiter-Glo		7 days		IC50	≥ 10 µM
COc1ccc(NC(=O)c2c(Nc3ccccc3)sc(C(=O)N/N=C/c3ccc(OC)c(OC)c3)c2NC(C)=O)cc1	HCT-116	cell growth or viability, SRB		0.1 µM, 48 h		viability	63.5%
CCN(C(=O)c1cc(F)ccc1Oc1nncnc1N1CCC2(C1)CN([C@H](CCCN(C)CCOC)C(C)C)C2)C(C)C	SW-620	cell growth or viability		72 h		GI50	> 10 µM
CC(C)(C)c1cc(-c2ccc3cccnc3n2)nc(-c2ccc3cccnc3n2)c1.[Cl-].[Cl-].[Ru+2].c1cnc2c(c1)ccc1cccnc12	B16-F10	cytotoxicity, resazurin		dark		EC50	231 ± 9 µM
C1=[N+]2CCCC[N+]3=Cc4ccc5[n]4[Au-]23[n]2c1ccc2-c1nc2ccccc2nc1-5.F[P-](F)(F)(F)(F)F	NCI/ADR-RES			NCI60 five-dose screen		TGI	4 -log M
COc1ccc2c(c1)c(CC(=O)[Se]CC(=O)Nc1cccc(C(F)(F)F)c1)c(C)n2C(=O)c1ccc(Cl)cc1	NCI60 breast subpanel	cell growth		10 µM, 48 h, one-dose		mean growth percent	-84%
CC1(C)CC[C@@]2(CO)C(=C3C=C[C@@H]4[C@@]5(C)CC[C@H](O)[C@@](C)(CO)[C@@H]5CC[C@@]4(C)[C@]3(C)C[C@@H]2O)C1	HepG2, SIRT1 siRNA	Western blot, measured: phospho-mTOR		concentration not given, high dose, unit not given, added: ethanol	baseline: β-actin	protein level	0.641 and 0.554 and 1.07
C=CC(=O)N1[C@@H](c2ccc3c(c2)OCO3)c2[nH]c3ccccc3c2C[C@H]1C(=O)NC1CC1	rat DRG neurons			0.1235 µM, 48 h, added: vincristine 40 nM		mean neuron degeneration	82.4%
CC(C)(C)c1cc(-c2ccc3cc4ccccc4nc3n2)nc(-c2ccc3cc4ccccc4nc3n2)c1.[Cl-].[Cl-].[Ru+2].c1ccc2cc3nc4c5cccnc5c5ncccc5c4nc3cc2c1	B16-F10	resazurin		added: light 733 nm, 100 J/cm2	baseline: dark EC50 over light EC50	phototoxicity index	1
Cc1nc(NCCOCCOCCNc2ncc(C(=O)NC3=NN(c4ccc(Cl)c(Cl)c4)CC3)c(C)n2)ncc1C(=O)NC1=NN(c2ccc(Cl)c(Cl)c2)CC1	KCL-22	cell growth or viability, ATP luminescence		72 h		EC50	0.057 µM

A few entries again:
Compound	cell line	test	system	setting	scale	quantity	result
COC(=O)c1cc(NC2=NC(=O)C(=Cc3ccc(C)cc3)S2)ccc1OC(C)=O	MCF7	GC-MS, measured: Guanosine		1 µM	baseline: DMSO	metabolite level	-0.55 fold change
CCN(CC)CC(=O)Nc1cccc(-n2cc(-c3ccc4ccc(-c5cn(-c6cccc(NC(=O)CN(CC)CC)c6)nn5)cc4c3)nn2)c1	RCC4	PCR angiogenesis array, measured: EFNB2		5 x IC50, 6 h, normoxia	baseline: untreated	fold regulation	-2.08
CNS(=O)(=O)Nc1nccc(Cc2c(C)c3ccc(Oc4ncccc4F)cc3oc2=O)c1F	TK	cell viability, CellTiter-Glo		7 days		IC50	> 1 µM
